{"data": "Results from different studies", "technique": "steady-state kinetics", "B1": "Por W677G (Rattus norvegicus, UniProt P00388); chain GDSHEDTSATMPEAVAEEVSLFSTTDMVLFSLIVGVLTYWFIFRKKKEEIPEFSKIQTTAPPVKESSFVEKMKKTGRNIIVFYGSQTGTAEEFANRLSKDAHRYGMRGMSADPEEYDLADLSSLPEIDKSLVVFCMATYGEGDPTDNAQDFYDWLQETDVDLTGVKFAVFGLGNKTYEHFNAMGKYVDQRLEQLGAQRIFELGLGDDDGNLEEDFITWREQFWPAVCEFFGVEATGEESSIRQYELVVHEDMDVAKVYTGEMGRLKSYENQKPPFDAKNPFLAAVTANRKLNQGTERHLMHLELDISDSKIRYESGDHVAVYPANDSALVNQIGEILGADLDVIMSLNNLDEESNKKHPFPCPTTYRTALTYYLDITNPPRTNVLYELAQYASEPSEQEHLHKMASSSGEGKELYLSWVVEARRHILAILQDYPSLRPPIDHLCELLPRLQARYYSIASSSKVHPNSVHICAVAVEYEAKSGRVNKGVATSWLRAKEPAGENGGRALVPMFVRKSQFRLPFKSTTPVIMVGPGTGIAPFMGFIQERAWLREQGKEVGETLLYYGCRRSDEDYLYREELARFHKDGALTQLNVAFSREQAHKVYVQHLLKRDREHLWKLIHEGGAHIYVCGDARNMAKDVQNTFYDIVAEFGPMEHTQAVDYVKKLMTKGRYSLDVGS", "B2": "enzyme A167S/Y136L (Bradyrhizobium diazoefficiens, UniProt Q45222); chain MIQTERAVQQVLEWGRSLTGFADEHAVEAVRGGQYILQRIHPSLRGTSARTGRDPQDETLIVTFYRELALLFWLDDCNDLGLISPEQLAAVEQALGQGVPCALPGFEGCAVLRASLATLAYDRRDYAQLLDDTRCLSAALRAGHAQAVAAERWSYAEYLHNGIDSISYANVFCCLSLLWGLDMATLRARPAFRQVLRLISAIGRLQNDLHGCDKDRSAGEADNAVILLLQRYPAMPVVEFLNDELAGHTRMLHRVMAEERFPAPWGPLIEAMAAIRVQYYRTSTSRYRSDAVRGGQRAPA", "B3": "enzyme (Kluyveromyces lactis, UniProt Q6CSZ6); chain MSSLDINEQRALIKSAHRYISEKLEDHFSSEFLPKALVICGSGLSGISTKIADEPKPLILSYSTIPGFKVSTVPGHSGELIFGYMNGAPVVLMNGRLHSYEGHSLAETVHPIRALHLLGSINVLIVTNAAGGINASFKAGDLMCVYDHINFPGLCGFHPLRGANFDEFGPRFLATSDAYDLELRKLLFSKKKELNIERKIHEGTYSYVHGPTFESRAESRFLRLAGTDAVGMSTVPEVVTARHCGWRVLALSLITNECVVDPPASAHDENPVPIQEGKATHEEVLENSAKASKDVQELIFSVVAEI", "B4": "enzyme S252E/S281E/S285E/S287E (Schizosaccharomyces pombe, UniProt P78804); chain MSTPYEPEFQQAYKEIVGSIESSKLFEVHPELKRVLPIISIPERVLEFRVTWEDDKGNCRVNTGYRVQFNSALGPYKGGLRFHPSVNLSILKFLGFEQIFKNALTGLPMGGGKGGSDFDPKGKSDNEIRRFSQAFMRQLFRYIGPQTDVPAGDIGVTGFVVMHMFGEYKRLRNEYSGVVTGKHMLTGGSNIRPEATGYGVVYYVKHMIEHRTKGAETLKGKRVAISGSGNVAQYAALKCIQEGAIVKSISDEKGVLIAKTAEGLVPEEIHEIMALKEKRAEIADEAELCKKHHYIAGARPWTNVGEIDIALPCATQNEVSGEEAAALIKQGCRYVAEGSNMGSSAEAVEVFEKSRASGEGCWLAPGKAANAGGVAVSGLEMAQNAQFSTWTHAEVDAKLAGIMQNIFEQSTDVASKYCDSGSNNIPSLVDGANIAGFLKVATAMQAVGDWW", "B5": "enzyme C458A (Methanosarcina mazei, UniProt Q8PVB1); chain MSEQRSVPLREHLLALKPCRHGGLIQETSETYGIPENEILDFSANFNPLGSPFDYPENGLNFEDIIKKSCGKLLEYPDNRYVEFREAAARFVGLGVTPQSIVPGNGSTEIVRLVVESVIEKGDKVLLPWPTFGEYEMQCRITGAEPVCPSQEEVNTLPDEVLEEAKILFICNPNNPTGKLRTREELKVLAERCREHKTLLYVDEAFIELSDPSQSVADLPAENNYVFVMRSLTKDFAIPGIRMGFGIAPPAMADILNTARLSWNLGAIANNTGIALLNIEGGIDSPYLKKAREMILKEGETLKAKIDRIRGFEAGEVNVNFILVDVSKFMLNSSELTARLAARGVLVRDCVSFHGLGKNYIRVAVRTEKENDRLIAAIGDVITEWGREQAKNELQHVIEKASEEGIGGRKTCEYYPCHFEGQNCTFCFCPFYPCENEKTGGKWIQSSRGGRVWSCVDAHLVHKKEIAQKILDCLMHEGDTDELVKVAWKEVMEPIL", "B6": "enzyme (Enterococcus faecium, UniProt A0A132Z3A5); chain MAKELKFAEDARAAMLRGVDKLADTVKVTLGPKGRNVVLEKSYGSPLITNDGVTIAKEIELEDHFENMGAKLVSEVASKTNDIAGDGTTTATVLTQAIVREGLKNVTAGANPLGIRRGIELATKAAVEELHNISTVVDSKEAIAQVAAVSSGSDKVGHLIADAMEKVGNDGVITIEESKGIETELDVVEGMQFDRGYLSQYMVTDNDKMEAVLENPYILITDKKISNIQDILPLLEQILQQSRPLLIIADDVDGEALPTLVLNKIRGTFNVVAVKAPGFGDRRKAMLEDIAILTGGTVITDDLGLELKDVTIENLGNASKVVVDKDNTTIVEGSGEKEAIEARVQLIKNQIAETTSDFDREKLQERLAKLAGGVAVVKVGAATETELKELKLRIEDALNATRAAVEEGMVSGGGTALVNVISKVSAVEAEGDVATGIKIVVRALEEPIRQIAENAGYEGSVIVDKLKNVELGTGFNAATGEWVNMVEAGIVDPTKVTRSALQNAASVSALLLTTEAVVADKPEPAAPAAPAMDPSMMGGMM", "sequence of UniProt P06672 (whole entry, looked up)": "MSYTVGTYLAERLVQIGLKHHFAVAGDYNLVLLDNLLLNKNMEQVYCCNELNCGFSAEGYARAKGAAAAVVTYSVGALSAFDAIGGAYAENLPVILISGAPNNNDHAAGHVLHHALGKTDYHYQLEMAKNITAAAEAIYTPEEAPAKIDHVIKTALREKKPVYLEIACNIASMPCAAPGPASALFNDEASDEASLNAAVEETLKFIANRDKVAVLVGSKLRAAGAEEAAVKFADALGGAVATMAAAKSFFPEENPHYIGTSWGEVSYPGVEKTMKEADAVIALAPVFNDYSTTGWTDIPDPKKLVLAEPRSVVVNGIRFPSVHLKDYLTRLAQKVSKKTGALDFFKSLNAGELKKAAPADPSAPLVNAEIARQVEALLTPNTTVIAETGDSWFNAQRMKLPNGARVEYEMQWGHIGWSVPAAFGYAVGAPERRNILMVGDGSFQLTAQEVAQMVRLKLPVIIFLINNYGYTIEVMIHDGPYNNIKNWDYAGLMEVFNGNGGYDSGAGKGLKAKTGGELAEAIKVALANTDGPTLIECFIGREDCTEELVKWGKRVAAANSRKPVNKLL", "sequence of UniProt P32664 (whole entry, looked up)": "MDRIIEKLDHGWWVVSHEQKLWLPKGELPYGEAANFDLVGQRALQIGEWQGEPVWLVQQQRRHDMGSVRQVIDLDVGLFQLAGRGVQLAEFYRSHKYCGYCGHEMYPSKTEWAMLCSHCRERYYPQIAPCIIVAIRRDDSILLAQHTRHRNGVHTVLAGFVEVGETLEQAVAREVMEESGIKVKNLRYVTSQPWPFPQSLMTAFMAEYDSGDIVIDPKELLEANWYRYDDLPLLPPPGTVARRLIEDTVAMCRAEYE"}
{"Substance": "HNL C81L/E79H/G176S/H103V/K236M/N104A/S105A/T11G/V106F (Hevea brasiliensis)", "substrate": "CC(=O)Oc1ccc([N+](=O)[O-])cc1", "pH": "pH 7.2", "temperature": "22 °C", "Km": "350 µM"}
{"Substance": "B1 (Por W677G)", "substrate": "NC(=O)C1=CN([C@@H]2O[C@H](COP(=O)(O)OP(=O)(O)OC[C@H]3O[C@@H](n4cnc5c(N)ncnc54)[C@H](O)[C@@H]3O)[C@@H](O)[C@H]2O)C=CC1", "with": "cytochrome c", "Km": "101 µM"}
{"Substance": "nudC (Escherichia coli, UniProt P32664)", "substrate": "Nc1ncnc2c1ncn2[C@@H]1O[C@H](COP(=O)(O)OP(=O)(O)OP(=O)(O)OP(=O)(O)OP(=O)(O)OC[C@H]2O[C@@H](n3cnc4c(N)ncnc43)[C@H](O)[C@@H]2O)[C@@H](O)[C@H]1O", "with": "Mg2+", "Km": "15 µM"}
{"Substance": "B2 (enzyme A167S/Y136L)", "substrate": "C=C1CC[C@@H]2C(C)(C)CCC[C@@]2(C)[C@@H]1CC/C(C)=C/COP(=O)(O)OP(=O)(O)O", "Km": "3.74 µM"}
{"Substance": "B3 (enzyme)", "substrate": "Nc1nc2c(ncn2[C@H]2C[C@H](O)[C@@H](CO)O2)c(=O)[nH]1", "Km": "59 µM"}
{"Substance": "B4 (enzyme S252E/S281E/S285E/S287E)", "substrate": "NC(=O)c1ccc[n+]([C@@H]2O[C@H](COP(=O)(O)OP(=O)(O)OC[C@H]3O[C@@H](n4cnc5c(N)ncnc54)[C@H](OP(=O)(O)O)[C@@H]3O)[C@@H](O)[C@H]2O)c1", "pH": "pH 7", "temperature": "30 °C", "notes": "apparent", "Km": "360 µM"}
{"Substance": "B5 (enzyme C458A)", "substrate": "Nc1ncnc2c1ncn2[C@@H]1O[C@H](COP(=O)(O)OP(=O)(O)OP(=O)(O)O)[C@@H](O)[C@H]1O", "pH": "pH 8.5", "temperature": "25 °C", "notes": "apparent, anoxic", "with": "L-Thr 10 mM", "Km": "98 µM"}
{"Substance": "pdc (Zymomonas mobilis, UniProt P06672)", "substrate": "CC(=O)C(=O)O", "pH": "pH 6", "temperature": "30 °C", "Km": "310 µM"}
{"Substance": "B6 (enzyme)", "substrate": "Nc1ncnc2c1ncn2[C@@H]1O[C@H](COP(=O)(O)OP(=O)(O)OP(=O)(O)O)[C@@H](O)[C@H]1O", "pH": "pH 7.4", "temperature": "24 °C", "notes": "apparent", "Km": "26.5 µM"}
{"note": "Repeated from above:"}
{"Substance": "pdc (Zymomonas mobilis, UniProt P06672)", "substrate": "CC(=O)C(=O)O", "pH": "pH 6", "temperature": "30 °C", "Km": "310 µM"}
